# Measured values of several laboratories.
# Every numbered part comes from another study and shows a few of its results, in no order.
# UniProt Q99558, sequence (whole entry, looked up): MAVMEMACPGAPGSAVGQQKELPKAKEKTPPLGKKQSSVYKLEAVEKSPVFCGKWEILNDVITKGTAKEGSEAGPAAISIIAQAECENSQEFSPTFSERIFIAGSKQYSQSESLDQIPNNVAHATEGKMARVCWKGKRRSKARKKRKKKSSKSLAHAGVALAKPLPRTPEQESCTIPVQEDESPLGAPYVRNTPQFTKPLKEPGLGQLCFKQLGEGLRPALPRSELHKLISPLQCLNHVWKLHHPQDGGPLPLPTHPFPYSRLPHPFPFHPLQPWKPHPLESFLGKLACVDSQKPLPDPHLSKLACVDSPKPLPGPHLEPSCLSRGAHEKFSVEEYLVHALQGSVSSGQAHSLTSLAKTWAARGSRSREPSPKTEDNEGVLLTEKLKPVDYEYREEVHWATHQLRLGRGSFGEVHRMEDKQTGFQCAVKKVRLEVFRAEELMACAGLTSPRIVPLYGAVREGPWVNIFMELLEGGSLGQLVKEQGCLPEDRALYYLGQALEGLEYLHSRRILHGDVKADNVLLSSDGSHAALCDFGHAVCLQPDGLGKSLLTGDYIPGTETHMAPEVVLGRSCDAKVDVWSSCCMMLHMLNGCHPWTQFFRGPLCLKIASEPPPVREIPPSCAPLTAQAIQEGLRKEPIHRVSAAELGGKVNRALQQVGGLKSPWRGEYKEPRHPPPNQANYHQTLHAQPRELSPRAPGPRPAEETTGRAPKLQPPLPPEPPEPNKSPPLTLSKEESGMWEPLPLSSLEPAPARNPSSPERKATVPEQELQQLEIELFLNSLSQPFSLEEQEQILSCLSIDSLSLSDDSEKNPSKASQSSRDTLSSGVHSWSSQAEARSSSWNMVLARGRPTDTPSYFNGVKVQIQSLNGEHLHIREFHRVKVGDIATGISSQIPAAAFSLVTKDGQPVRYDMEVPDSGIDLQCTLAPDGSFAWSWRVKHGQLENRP
# UniProt Q9UL54, sequence (whole entry, looked up): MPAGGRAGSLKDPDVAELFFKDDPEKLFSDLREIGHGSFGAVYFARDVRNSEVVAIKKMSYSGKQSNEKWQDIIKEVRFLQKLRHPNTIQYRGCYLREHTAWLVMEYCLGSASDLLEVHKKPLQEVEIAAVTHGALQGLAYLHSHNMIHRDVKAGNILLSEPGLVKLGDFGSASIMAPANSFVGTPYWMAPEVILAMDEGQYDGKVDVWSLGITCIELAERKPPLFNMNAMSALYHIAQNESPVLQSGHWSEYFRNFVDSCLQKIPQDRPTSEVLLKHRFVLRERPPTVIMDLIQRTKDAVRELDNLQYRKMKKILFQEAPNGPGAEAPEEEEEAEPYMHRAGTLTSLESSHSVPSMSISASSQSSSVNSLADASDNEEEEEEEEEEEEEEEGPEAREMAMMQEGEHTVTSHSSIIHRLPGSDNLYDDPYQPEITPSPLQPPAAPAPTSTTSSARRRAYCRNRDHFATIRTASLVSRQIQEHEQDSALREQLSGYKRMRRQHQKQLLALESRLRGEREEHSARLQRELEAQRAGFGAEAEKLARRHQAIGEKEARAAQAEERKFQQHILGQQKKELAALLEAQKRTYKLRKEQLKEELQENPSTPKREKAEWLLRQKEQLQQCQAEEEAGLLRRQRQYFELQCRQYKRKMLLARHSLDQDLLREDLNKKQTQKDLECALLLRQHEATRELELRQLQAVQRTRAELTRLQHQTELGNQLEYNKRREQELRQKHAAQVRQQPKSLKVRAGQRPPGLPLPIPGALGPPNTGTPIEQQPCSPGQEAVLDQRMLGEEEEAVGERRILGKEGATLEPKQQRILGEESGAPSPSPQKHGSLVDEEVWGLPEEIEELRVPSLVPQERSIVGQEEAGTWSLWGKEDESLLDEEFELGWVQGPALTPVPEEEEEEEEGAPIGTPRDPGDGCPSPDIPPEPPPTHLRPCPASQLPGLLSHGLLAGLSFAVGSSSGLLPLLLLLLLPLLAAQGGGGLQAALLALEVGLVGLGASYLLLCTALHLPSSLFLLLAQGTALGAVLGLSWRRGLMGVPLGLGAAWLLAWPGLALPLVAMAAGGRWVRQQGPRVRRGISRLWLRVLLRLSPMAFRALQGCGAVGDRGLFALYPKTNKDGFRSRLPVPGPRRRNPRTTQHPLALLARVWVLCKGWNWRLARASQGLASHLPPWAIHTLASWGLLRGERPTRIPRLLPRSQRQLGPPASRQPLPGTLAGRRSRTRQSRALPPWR
# UniProt P30291, sequence (whole entry, looked up): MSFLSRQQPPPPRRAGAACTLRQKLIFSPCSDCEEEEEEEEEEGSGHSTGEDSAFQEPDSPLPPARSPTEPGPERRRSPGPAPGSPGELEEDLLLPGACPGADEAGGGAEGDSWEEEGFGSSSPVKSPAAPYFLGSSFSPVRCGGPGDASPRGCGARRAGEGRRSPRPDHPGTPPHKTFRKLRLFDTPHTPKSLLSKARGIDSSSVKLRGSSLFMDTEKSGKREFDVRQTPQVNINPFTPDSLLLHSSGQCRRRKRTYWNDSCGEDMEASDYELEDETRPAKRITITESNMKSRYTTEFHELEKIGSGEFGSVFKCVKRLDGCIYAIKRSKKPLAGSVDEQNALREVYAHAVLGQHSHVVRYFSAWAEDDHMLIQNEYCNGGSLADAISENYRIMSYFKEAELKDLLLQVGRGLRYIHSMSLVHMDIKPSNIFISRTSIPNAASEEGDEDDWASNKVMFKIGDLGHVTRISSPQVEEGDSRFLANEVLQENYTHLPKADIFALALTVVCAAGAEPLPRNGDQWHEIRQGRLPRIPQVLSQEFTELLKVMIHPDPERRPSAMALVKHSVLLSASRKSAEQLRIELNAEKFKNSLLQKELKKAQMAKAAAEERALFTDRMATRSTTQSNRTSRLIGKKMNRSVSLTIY
# UniProt P36507, sequence (whole entry, looked up): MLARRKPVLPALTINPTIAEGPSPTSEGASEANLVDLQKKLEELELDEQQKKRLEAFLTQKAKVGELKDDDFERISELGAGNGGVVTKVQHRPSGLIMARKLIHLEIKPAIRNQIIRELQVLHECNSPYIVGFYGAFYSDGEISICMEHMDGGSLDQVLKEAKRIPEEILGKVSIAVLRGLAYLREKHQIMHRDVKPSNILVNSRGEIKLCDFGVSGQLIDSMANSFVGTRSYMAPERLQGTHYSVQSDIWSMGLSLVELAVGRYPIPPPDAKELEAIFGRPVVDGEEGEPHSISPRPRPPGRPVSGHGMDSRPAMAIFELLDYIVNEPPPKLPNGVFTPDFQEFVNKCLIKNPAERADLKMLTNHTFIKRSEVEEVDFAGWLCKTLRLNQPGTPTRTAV
# UniProt Q13043, sequence (whole entry, looked up): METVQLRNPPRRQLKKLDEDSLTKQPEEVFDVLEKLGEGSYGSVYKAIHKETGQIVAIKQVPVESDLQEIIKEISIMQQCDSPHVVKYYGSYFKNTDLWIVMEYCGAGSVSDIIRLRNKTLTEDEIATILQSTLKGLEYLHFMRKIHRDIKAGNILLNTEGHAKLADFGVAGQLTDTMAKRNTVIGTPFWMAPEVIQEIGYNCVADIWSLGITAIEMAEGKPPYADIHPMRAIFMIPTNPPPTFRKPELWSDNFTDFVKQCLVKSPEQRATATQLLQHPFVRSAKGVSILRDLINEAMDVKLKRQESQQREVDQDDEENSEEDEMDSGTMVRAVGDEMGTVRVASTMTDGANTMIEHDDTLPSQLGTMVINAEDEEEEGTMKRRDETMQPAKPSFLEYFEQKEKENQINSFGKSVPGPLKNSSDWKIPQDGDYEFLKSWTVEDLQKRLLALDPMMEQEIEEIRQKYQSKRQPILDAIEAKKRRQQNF
# UniProt P04049, sequence (whole entry, looked up): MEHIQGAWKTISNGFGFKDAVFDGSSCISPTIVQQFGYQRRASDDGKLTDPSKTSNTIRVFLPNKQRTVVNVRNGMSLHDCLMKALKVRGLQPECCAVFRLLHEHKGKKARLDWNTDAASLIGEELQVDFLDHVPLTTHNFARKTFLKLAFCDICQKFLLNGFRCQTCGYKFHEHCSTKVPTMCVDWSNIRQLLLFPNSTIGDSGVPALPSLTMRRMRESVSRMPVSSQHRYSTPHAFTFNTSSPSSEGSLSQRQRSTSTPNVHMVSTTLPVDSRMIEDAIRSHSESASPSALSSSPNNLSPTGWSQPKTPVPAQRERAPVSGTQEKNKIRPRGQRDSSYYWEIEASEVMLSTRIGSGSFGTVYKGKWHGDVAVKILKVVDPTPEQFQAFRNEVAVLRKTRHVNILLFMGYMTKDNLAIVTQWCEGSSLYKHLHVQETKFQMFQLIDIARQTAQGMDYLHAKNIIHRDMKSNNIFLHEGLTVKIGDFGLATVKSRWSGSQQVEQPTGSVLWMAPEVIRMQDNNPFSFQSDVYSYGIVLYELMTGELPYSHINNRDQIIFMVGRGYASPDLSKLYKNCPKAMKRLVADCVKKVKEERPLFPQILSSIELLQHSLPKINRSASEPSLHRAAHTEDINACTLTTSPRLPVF
# UniProt P42685, sequence (whole entry, looked up): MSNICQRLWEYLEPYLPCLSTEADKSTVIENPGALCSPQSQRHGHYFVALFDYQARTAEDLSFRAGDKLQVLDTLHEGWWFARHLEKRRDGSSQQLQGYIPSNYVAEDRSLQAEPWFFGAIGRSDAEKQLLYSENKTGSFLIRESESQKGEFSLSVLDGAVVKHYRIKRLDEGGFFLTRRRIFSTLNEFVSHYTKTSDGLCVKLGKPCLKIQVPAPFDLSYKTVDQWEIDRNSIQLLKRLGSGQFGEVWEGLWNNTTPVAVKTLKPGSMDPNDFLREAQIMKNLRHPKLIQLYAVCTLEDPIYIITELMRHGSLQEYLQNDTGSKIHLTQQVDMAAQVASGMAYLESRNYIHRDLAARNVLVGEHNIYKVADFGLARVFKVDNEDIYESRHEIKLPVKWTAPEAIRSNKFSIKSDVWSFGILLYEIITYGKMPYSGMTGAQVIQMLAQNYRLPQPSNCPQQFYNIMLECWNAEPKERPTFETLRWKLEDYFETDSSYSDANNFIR

# Set 1 — observed: enzyme activity; mode: inhibitor; concentration: 0.5 µM; relative to: control
# SMILES: Nc1cccc(-c2cc3c(Oc4cccc(O)c4)ncnc3[nH]2)c1
target,remaining activity [%]
"ULK2 (Homo sapiens, UniProt Q8IYT8)",97.5
"NEK1 (Homo sapiens, UniProt Q96PY6)",92.3
"NEK6 (Homo sapiens, UniProt Q9HC98)",90.2
"WEE1 (Homo sapiens, UniProt P30291)",85.5
"MAP3K14 (Homo sapiens, UniProt Q99558)",69.6
"TEK (Homo sapiens, UniProt Q02763)",60.7
"ABL2 (Homo sapiens, UniProt P42684)",1.4
"MAP2K2 (Homo sapiens, UniProt P36507)",104
"FRK (Homo sapiens, UniProt P42685)",6.95
"MST1R (Homo sapiens, UniProt Q04912)",103
"FGFR3 (Homo sapiens, UniProt P22607)",67.9
"MERTK (Homo sapiens, UniProt Q12866)",63.8
"TAOK2 (Homo sapiens, UniProt Q9UL54)",81.4
"MAPK3 (Homo sapiens, UniProt P27361)",86.9

# Set 2 — organism: Sarcocystis neurona; observed: parasite growth; concentration: 10 µM; time: 96 h; setting: secondary screen
Compound,inhibition
COc1ccc(Cl)cc1C(=O)NCCc1ccc(S(=O)(=O)NC(=O)NC2CCCCC2)cc1,0.8%
CN(C)[C@@H]1C(O)=C(C(N)=O)C(=O)[C@@]2(O)C(O)=C3C(=O)c4c(O)cccc4[C@@](C)(O)[C@H]3C[C@@H]12,-30.7%
COc1ccc2c(c1)c(CC(=O)O)c(C)n2C(=O)c1ccc(Cl)cc1,5.3%
OCc1cccnc1,-33%
CO/N=C(\C(=O)N[C@@H]1C(=O)N2C(C(=O)O)=C(COC(C)=O)CS[C@H]12)c1csc(N)n1,-12%
Cc1cccc(C)c1NC(=O)C1CCCCN1C (centres unmarked),-10.5%
CC(=O)[C@H]1CC[C@H]2[C@@H]3C[C@H](C)C4=CC(=O)CC[C@]4(C)[C@H]3[C@@H](O)C[C@]12C,-2.7%
CN(C)[C@@H]1C(O)=C(C(=O)NCN2CCCC2)C(=O)[C@@]2(O)C(O)=C3C(=O)c4c(O)cccc4[C@@](C)(O)[C@H]3C[C@@H]12,-17.3%

# Set 3 — cell line: HH; concentration: 2 µM; time: 48 h; relative to: untreated
SMILES,viability
Cc1cc2c(F)c(Oc3ncnn4cc(OC[C@@H](C)OC(=O)[C@H](C)N)c(C)c34)ccc2[nH]1,94.2%
O=C(NCc1ccccc1)c1csc(Nc2ccncn2)n1,60.9%
Cn1cc(-c2ccc3ncc(Cc4ccc5ncccc5c4)n3n2)cn1,69.4%
Cc1c(F)cc(C(=O)NC2CC2)cc1-c1ccc(C(=O)NCC(C)(C)C)cn1,90%
COc1cc2c(Oc3ccc4[nH]c(C)cc4c3F)ncnc2cc1OCCCN1CCCC1,96.4%
CN1CCC(Nc2nc(Nc3ccc(Oc4ccccc4)cc3)c3c(=O)[nH]cc(Br)c3n2)CC1,91.3%
COc1cc(-c2cc(-c3ccc(N4CCNCC4)cc3)cnc2C)cc(OC)c1OC,99.6%
CNC(=O)Nc1ccc(-c2nc(N3CC4CCC(C3)O4)c3cnn(C4CCC5(CC4)OCCO5)c3n2)cc1,28.3%

# Set 4 — observed: cell-free assay; method: competition with immobilised ligand; concentration: 1 µM
# Compound: COc1cc(-c2cn(C3CCc4ccccc4N(CC(F)(F)F)C3=O)nn2)ccc1-n1ccc(C)n1 (centres unmarked)
target,remaining binding
"SNRK (Homo sapiens, UniProt Q9NRH2)",99%
"PRKG1 (Homo sapiens, UniProt Q13976)",100%
"MAP3K11 (Homo sapiens, UniProt Q16584)",100%
"FGFR2 (Homo sapiens, UniProt P21802)",100%
"STK4 (Homo sapiens, UniProt Q13043)",100%
"EGFR (Homo sapiens, UniProt P00533, L861Q)",100%
"RAF1 (Homo sapiens, UniProt P04049)",98%
"CIT (Homo sapiens, UniProt O14578)",100%
